# Published values gathered from unrelated publications.
# Parts stem from different laboratories: compare values within a part only. Positions count from the first letter of the parent shown.

# Set 1 — target: CCND1, cyclin fold, Cln2 fusion (human); method: yeast growth competition, sequencing; matrix: yeast; notes: strong parent motif; relative to: not given; direction: higher = stronger binding; starting sequence: viral docking peptide; KGVKRKLFAEDSS
Variant,normalised enrichment score
K4M,0.546
K6F,0.064
E10D,2.3
L7M,0.334

# Set 2 — method: protein-binding microarray; molecule type: hairpin DNA; matrix: in vitro; concentration: not given; relative to: not given; direction: higher = stronger binding
# Target: Runt-related transcription factor 1, full length (RUNX1, Homo sapiens, UniProt Q01196-8, residues 1-480)
# Notes: whole hairpin DNA, median over replicate spots
Strand,median fluorescence
GAGGCCCAGCCGCAACAGCCTCCTGGCTGTTGCGGCTGGGCCTCACACTC (5mC at 36),2510 a.u.
CTCAGTTCTGTGCGCTGGACTCCTGTCCAGCGCACAGAACTGAGACACTC,1700 a.u.
GAGGCCTCTTGTGGTTGGCCTCCTGGCCAACCACAAGAGGCCTCACACTC (5mC at 8),2950 a.u.
GAGGCCTGTCGCCGTTGGCCTCCTGGCCAACGGCGACAGGCCTCACACTC (5mC at 13 31),1900 a.u.
CTCAGTTCTATGGGCTGGACTCCTGTCCAGCCCATAGAACTGAGACACTC,1660 a.u.
GAGGCCTGTTGCGGTTCGCCTCCTGGCGAACCGCAACAGGCCTCACACTC,4070 a.u.
GAGGCCCGTCGCGGTTGGCCTCCTGGCCAACCGCGACGGGCCTCACACTC (5mC at 37),2720 a.u.
GAGGCCAGTCGCGGTTGGCCTCCTGGCCAACCGCGACTGGCCTCACACTC,2550 a.u.

# Set 3 — method: competition protein-binding microarray; molecule type: double-stranded DNA, one strand shown; matrix: in vitro; concentration: 2 µM; together with: Cbf1 competitor, 0.05 µM; direction: higher = stronger binding; constant ends, left off below: … GTCTTGATTCGCTTGACGCTGCTG
# Target: Phosphate system positive regulatory protein PHO4, full length, GST-tagged (PHO4, Saccharomyces cerevisiae, UniProt P07270, residues 1-312)
# Notes: whole 60-bp probe, lowest competitor level
# Target sequence (chain): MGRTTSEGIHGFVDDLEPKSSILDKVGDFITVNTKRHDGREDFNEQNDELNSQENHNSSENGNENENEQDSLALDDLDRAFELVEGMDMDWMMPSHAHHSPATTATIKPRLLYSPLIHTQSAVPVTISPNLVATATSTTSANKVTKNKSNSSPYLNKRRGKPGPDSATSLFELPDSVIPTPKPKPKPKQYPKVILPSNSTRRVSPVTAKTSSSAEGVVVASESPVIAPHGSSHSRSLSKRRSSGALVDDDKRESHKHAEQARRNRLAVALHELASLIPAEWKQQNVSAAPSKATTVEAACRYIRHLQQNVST
Strand,fluorescence intensity [a.u.]
TCTAGTGATACCCATCACGTGCCAGTGATACTTGCG,18000
CGTCCTAGTGATTGCGTCGTGGGTGCCATGAGGAAG,10600
CATACCCAACCTTTTCACGTGGCATAAGATATTTGT,15700
CTATACCTGACGGTCCACGGGGTTGGCAGCCCGGTC,7970
TTCAGAAGGTGGAGACACATGAAATTGACAGGTCTT,4070
CGGCGGCAAGGTTGTGTCGTGATGGTCGTTGCATAG,6240
CTCTCGGGCGTCGCCAACGTGGTCGTTCAAATGCTT,14600
ACCCCAGCCGCCGGGTTCGTGCCAGTCTGGTAAGCC,5840

# Set 4 — target: inorganic phosphate, free oxyanion; method: microfluidic competitive inhibition; matrix: in vitro, cell-free expressed; concentration: not given; direction: lower = stronger binding
# Notes: derived from inhibition constants, unchanged parent 615000 nM
# Starting sequence: PafA, mature enzyme, eGFP fusion (Elizabethkingia meningoseptica, UniProt Q9KJX5); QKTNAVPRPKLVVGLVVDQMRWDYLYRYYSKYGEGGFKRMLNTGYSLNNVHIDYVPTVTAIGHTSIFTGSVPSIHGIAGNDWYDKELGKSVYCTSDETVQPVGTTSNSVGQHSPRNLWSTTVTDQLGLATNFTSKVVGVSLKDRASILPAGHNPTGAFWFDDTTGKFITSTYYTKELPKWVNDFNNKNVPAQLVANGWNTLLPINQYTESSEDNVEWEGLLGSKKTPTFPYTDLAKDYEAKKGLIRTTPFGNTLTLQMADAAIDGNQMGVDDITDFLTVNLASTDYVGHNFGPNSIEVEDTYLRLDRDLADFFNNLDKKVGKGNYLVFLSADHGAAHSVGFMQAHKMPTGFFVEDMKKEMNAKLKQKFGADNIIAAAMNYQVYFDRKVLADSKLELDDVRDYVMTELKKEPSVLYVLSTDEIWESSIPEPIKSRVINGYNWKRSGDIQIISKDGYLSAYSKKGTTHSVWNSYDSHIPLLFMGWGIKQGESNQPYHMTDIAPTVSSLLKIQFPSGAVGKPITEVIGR
Variant,phosphate dissociation constant
L394G,601 µM
G445A,415 µM
R400G,596 µM
R307G,580 µM
